Measured values pooled from the literature.
Numbered parts are unrelated; each lists some results of a single study.

Sample 1 — technique: RNA Bind-n-Seq; form: RNA; medium: in vitro; tested at: 200 nM; setting: whole 134-nt RNA, ends assumed; together with: 150 mM LiCl; relative to: input library; reading: higher = stronger binding; each molecule: 7-deaza-guanosine replaces G
Target: Ras GTPase-activating protein-binding protein 1, full length (G3BP1, Homo sapiens, UniProt Q13283)
Chain of UniProt Q13283 (whole entry, looked up): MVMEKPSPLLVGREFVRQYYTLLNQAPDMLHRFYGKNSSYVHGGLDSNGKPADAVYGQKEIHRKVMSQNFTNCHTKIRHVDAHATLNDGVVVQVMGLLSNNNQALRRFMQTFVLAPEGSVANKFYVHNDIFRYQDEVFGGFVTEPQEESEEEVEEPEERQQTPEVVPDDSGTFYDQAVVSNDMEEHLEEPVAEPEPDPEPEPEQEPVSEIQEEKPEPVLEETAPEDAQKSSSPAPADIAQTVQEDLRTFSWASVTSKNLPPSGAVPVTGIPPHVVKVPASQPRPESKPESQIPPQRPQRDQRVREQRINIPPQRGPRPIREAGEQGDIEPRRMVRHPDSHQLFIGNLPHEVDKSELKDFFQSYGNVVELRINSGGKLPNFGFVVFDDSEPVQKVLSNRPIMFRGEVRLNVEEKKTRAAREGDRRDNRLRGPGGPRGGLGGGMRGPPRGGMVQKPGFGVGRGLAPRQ
Shared flanks, not repeated: GGGAGUUCUACAGUCCGACGAUC … UGGAAUUCUCGGGUGUCAAGG
| Strand | log2 enrichment |
| --- | --- |
| GUCCUGUGCUACACAUCGUAUGUACCGAAUCGGUUUUUUUGGUUUUUUUGGUUUUUGGAAAGUAUUAUGUUACGCCGUUCGGAUCUGCAC | -1.01 |
| UCCUGUGCUACACAUCGUAUGUACCGAAUCGGGGCCCCCCGGCCCCCCGGGCCCCCCGGGAAAGUAUUAUGUUACGCCGUUCGGAUCUGC | 0.0576 |
| CCUGUGCUACACAUCGUAUGUACCGAAUCGGGGAAAAAGGGGAAAAAAAGGGGAAAGGGGAAAGUAUUAUGUUACGCCGUUCGGAUCUGC | 0.828 |
| AAGUCCUGUGCUACACAUCGUAUGUACCGAAUCGGAAAAGGGAAAAGGGAAAAGGGGAAAGUAUUAUGUUACGCCGUUCGGAUCUGCACU | 0.325 |
| GCAGGAAGUAAAAACAAAUGGAAAUGCUUCGGAUAGUGGCAGGGGUGGGGGUUGCUAAGGAAAGGGUGGGAUGGGAGUGGGUAAAGCGUU | -0.0228 |
| UGGCCCUGGUGGCAUGCGGGGAGGAAGAGGUGGCCUCAUGGAUCGUCGUGGUCCCGGUGGAAUGUUCAGAGGUGGCCGUGGUGGAGACAG | 0.866 |

Sample 2 — technique: RNAcompete; form: RNA; medium: in vitro; tested at: 20 nM; setting: 7-mer, probes averaged, single round; relative to: mean of 7-mers; reading: higher = stronger binding
Target: PABPC1L2, full length, GST fusion (mouse, UniProt A0ABA7IW68)
Construct (chain): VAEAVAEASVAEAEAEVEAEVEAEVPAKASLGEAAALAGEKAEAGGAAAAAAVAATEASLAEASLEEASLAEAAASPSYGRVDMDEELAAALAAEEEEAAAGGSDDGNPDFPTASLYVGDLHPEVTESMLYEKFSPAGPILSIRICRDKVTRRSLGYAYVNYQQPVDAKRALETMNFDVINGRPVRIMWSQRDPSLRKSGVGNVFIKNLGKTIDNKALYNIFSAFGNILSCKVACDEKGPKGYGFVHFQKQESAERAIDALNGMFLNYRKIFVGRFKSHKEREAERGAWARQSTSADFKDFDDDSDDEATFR
| Strand | 7-mer Z-score |
| --- | --- |
| CCCGACG | -0.371 |
| CUUUUAU | 0.0642 |
| UAAUAGA | -0.0138 |
| AGAAGUC | -0.333 |
| AUAGAUA | 0.066 |
| GCGUGAA | -0.0319 |
| UGGUUAA | -0.211 |
| CGAAUUC | -0.229 |
| GCAGUUC | -0.168 |

Sample 3 — technique: protein binding microarray; form: double-stranded DNA, one strand shown; medium: in vitro; tested at: not given; relative to: not given; reading: higher = stronger binding
Target: Histone acetyltransferase KAT6A, winged helix 1, GST fusion (KAT6A, Homo sapiens, UniProt Q92794, residues 1-85)
Setting: 8-mer, flanks averaged, mean of 2 arrays, mostly near background
Residues (chain): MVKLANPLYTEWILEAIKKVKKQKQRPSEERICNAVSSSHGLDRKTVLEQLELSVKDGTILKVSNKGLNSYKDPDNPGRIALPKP
| Strand | E-score |
| --- | --- |
| AACAGTAT | -0.102 |
| GATGGTAA | -0.156 |
| CTTTTGCC | -0.00624 |
| ACGACCAC | -0.188 |
| ATCTGCTA | -0.247 |
| CCCTCCGG | 0.0532 |
| ACCGGTCC | 0.227 |

Further values, each from its own experiment
| Molecule | target | assay | test system | conditions | scale | endpoint | value |
| --- | --- | --- | --- | --- | --- | --- | --- |
| PhoQ, residues 284 288 289 292 302 303 SMMNNA | PhoP, residues 12 14 15 18 19 MHTVL (Escherichia coli, UniProt P23836) | Sort-seq, measured: YFP reporter | E. coli | PhoQ-PhoP variant library, together with: 10 µM Mg2+ | relative to: high Mg2+ state, higher = stronger signaling | fold induction | 19.3 |

Repeated from above (sample 2):
| Strand | 7-mer Z-score |
| --- | --- |
| CGAAUUC | -0.229 |
| GCAGUUC | -0.168 |
